Measurements gathered from unrelated publications.
Every numbered part comes from another study and shows a few of its results, in no order.

Set 1 — method: protein-binding microarray; form: double-stranded DNA, one strand shown; matrix: in vitro; concentration: 940 nM top; setting: 60-bp whole probe; added: salmon DNA 0.4 mg/ml; baseline: random background probes; reading: higher = stronger binding
Target: Interferon regulatory factor 5, full length, phosphomimetic (IRF5, Homo sapiens, UniProt Q13568-2, residues 1-514, S451D/S453D/S456D/S462D)
All sequences stand within: GCCTAGCAC … GTGCTAGGTCTTGATTCGCTTGACGCTGCTG
Under “fitted relative affinity”, `TTAGGTCTCGGTATTGGTTA` is recorded as 4.59 z-score.
Under “fitted relative affinity”, `GACGGTCTCGGACTGGGGGC` is recorded as 1.58 z-score.
Under “fitted relative affinity”, `TCACCTCCCCCTCTGCCACT` is recorded as 0.266 z-score.
Under “fitted relative affinity”, `TCAAACTTCGGCCTCTAACT` is recorded as 0.327 z-score.
For `TTAGGACTCCTTTTCCTTTA`, “fitted relative affinity” read 0.0911 z-score.
`GACGATATCAGTTTTGAGAC`: “fitted relative affinity” 0.113 z-score.
Under “fitted relative affinity”, `TTGGGTTTCGGTATCGGTTA` is recorded as 13.9 z-score.
`GACGGTTTCCTTTTCCGGAC` — result for “fitted relative affinity”: 2.45 z-score.

Set 2 — read-out: enzyme activity; action: inhibitor; concentration: 20 µM; setting: hit confirmation, no DTT
Target: Replicase polyprotein 1ab, main protease (rep, Severe acute respiratory syndrome coronavirus 2, UniProt P0DTD1)
The inhibition of `CC[C@]12C=CCN3CC[C@@]4(c5cc([C@@]6(C(=O)OC)C[C@@H]7C[C@@H](C(C)(F)F)C[N@](CCc8c6[nH]c6ccccc86)C7)c(OC)cc5N(C)[C@H]4[C@@](O)(C(=O)OC)[C@@H]1OC(C)=O)[C@@H]32` is reported as 97.2%.
`O=C(NCCCNc1nc(Nc2cccc(NC(=O)N3CCCC3)c2)ncc1I)c1cccs1` has an inhibition of 75.1%.
`O=[N+]([O-])C=Cc1ccc2c(c1)OCO2` has an inhibition of 97.4%.
`O=C(O)c1ccc(SSc2ccc(C(=O)O)cn2)nc1` gave an inhibition of 98.9%.

Set 3 — cell line: HEK-293T; read-out: pseudovirus infection; organism: VSV pseudotyped with SARS-CoV-2 spike; concentration: 10 µM; time: 16 h; baseline: vehicle-treated
The GFP-positive cells of `CNNCc1ccc(C(=O)NC(C)C)cc1` is reported as 82.3%.
For `O=C1CCCC(=O)C1C(=O)c1ccc(C(F)(F)F)cc1[N+](=O)[O-]`, the GFP-positive cells was 107%.
`O=C(Nc1c(Cl)cncc1Cl)c1ccc(OC(F)F)c(OCC2CC2)c1` gave a GFP-positive cells of 96.4%.

Set 4 — method: RNA Bind-n-Seq; form: RNA; matrix: in vitro; concentration: not given; baseline: input RNA pool; reading: higher = stronger binding
Target: RING finger protein unkempt homolog, zinc fingers 1-6, GST-SBP tag (UNK, Homo sapiens, UniProt Q9C0B0, residues 30-357)
Setting: RNA with constant flanks, human and mouse sites, ends assumed
Residues (chain): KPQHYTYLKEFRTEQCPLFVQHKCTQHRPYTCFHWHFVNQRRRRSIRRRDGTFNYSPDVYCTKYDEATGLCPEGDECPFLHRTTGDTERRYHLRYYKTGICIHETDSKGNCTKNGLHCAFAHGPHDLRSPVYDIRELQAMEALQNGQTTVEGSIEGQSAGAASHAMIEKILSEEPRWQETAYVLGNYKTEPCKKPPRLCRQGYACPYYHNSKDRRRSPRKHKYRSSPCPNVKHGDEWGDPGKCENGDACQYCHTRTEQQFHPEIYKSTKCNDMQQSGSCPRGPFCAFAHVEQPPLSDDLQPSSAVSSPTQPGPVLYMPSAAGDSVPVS
`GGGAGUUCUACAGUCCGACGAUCUAGUCACUUUUUAAAUUGCUGGCAAAGCUAUAAUUAAUCCCUAGGCACAAUUGUAGUUUUUAUUUUAAUGUUUGUAUGCACAAGGCCCUUUAGGAAAUGAGAAGUUGCCAUGCCAGAUUACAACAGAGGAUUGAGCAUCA` gave a bound/input enrichment of 59.7 ratio.
For `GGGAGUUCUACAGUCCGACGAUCCCUUCGACAGCUGAGAGACAAAAAACCCUGUGCUCUCUCUCUGGCAGGAAGCCCGUGCCUCUACUACUGGAUCAAGAUUAUGUUAAUUUAAAGAACCAAAUUAUAAAGGCGGAAAGACGACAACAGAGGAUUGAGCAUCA`, the bound/input enrichment was 0.208 ratio.
The bound/input enrichment of `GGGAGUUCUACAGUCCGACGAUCAACUGGUUUGAGACUUUCAUUGUGUUCAUGAUCCUUCUCAGUAGUGGUGCAUUGGCCUUUGAAGAUAUAUACAUUGAACAGCGAAAGACUAUCAAAACCAUGCUAGAAUAUGCUGACAAACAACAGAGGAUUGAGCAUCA` is reported as 0.717 ratio.
`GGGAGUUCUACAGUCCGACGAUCGUAGAAUUCCAAAAGACAGUAAAGCUUAUGUACUACUUGUGGAUGUUCCAUGCAGUAACACUGUUUCUAAAUAUCUUCGGAUGCUUGGCUUGGUUUUGUGUUGAUUCUGCAAGAGCGGUUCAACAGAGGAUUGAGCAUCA` gave a bound/input enrichment of 0.0524 ratio.
The bound/input enrichment of `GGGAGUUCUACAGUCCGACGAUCUGUAUUAAAUCAAUUUAUCACUGUUUAAAGCUUUGAAUAUCUGCAAUCUUUGCCAAGGUACUUUUUUAUUUAAAAAAAAACAUAACUUUGUAAAUAUUACCCUGUAAUAUUAUAUAUACUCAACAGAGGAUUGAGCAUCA` is reported as 0.689 ratio.
For `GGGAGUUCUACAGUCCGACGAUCGGUAACUAGUGGGGGUAAAUGAAUUUAACACACGAUAUUUGAAGAUUAUUUGGAGGAUUUUUGUAGGACAUGGCAUAGAGAGGAAUAUAAAAGAUACUUCACAGUUGAAAGAAAUAGAAUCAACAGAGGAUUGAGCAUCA`, the bound/input enrichment was 8.92 ratio.
The bound/input enrichment of `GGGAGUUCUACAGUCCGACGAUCAUAGUAAAAGGGGGUGCUGCAGAGAAAAGUGGUCUGUUGCAUGAAGGAGAUGAAGUUCUAGAGAUUAAUGGCAUUGAAAUUCGGGGGAAAGAUGUCAAUGAGGUUUUUGACUUGUUGUCUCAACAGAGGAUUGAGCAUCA` is reported as 1.62 ratio.
`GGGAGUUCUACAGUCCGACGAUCUUAAAGGCAGAAAACCUGCUCUUGGAUGCUGAUAUGAACAUCAAGAUUGCAGACUUUGGCUUCAGCAAUGAAUUCACCUUUGGGAACAAGCUGGACACCUUCUGUGGCAGUCCCCCUUAUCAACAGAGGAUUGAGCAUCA` has a bound/input enrichment of 0.0608 ratio.

Set 5 — method: Spec-seq; form: double-stranded DNA, one strand shown; matrix: in vitro; concentration: not given; setting: whole probe, mean of replicates; baseline: not given; reading: lower = stronger binding; all sequences stand within: GAGTCGTCTCGTCAGCACA … CCGTAGAGCACTCAGGTC
Target: POU, POU domain (Salpingoeca helianthica)
Residues (chain): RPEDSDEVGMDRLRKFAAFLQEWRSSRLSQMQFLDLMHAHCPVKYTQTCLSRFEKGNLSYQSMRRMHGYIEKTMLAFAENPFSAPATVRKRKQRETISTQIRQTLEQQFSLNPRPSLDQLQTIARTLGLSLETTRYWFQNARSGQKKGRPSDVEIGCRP
`GAGTAAT`: “relative binding energy” 0.7 ln ratio.
`TGCTGTA`: “relative binding energy” 1.17 ln ratio.
`TGCGTTT` — result for “relative binding energy”: 1.14 ln ratio.
For `TGTTAAT`, “relative binding energy” read 0.0517 ln ratio.
`TGCTCGC`: “relative binding energy” 1.65 ln ratio.

Set 6 — read-out: enzyme activity; action: inhibitor; concentration: 20 µM
Target: Replicase polyprotein 1ab, polymerase (rep, Severe acute respiratory syndrome coronavirus 2, UniProt P0DTD1)
With `OC[C@H]1O[C@@H](n2cnc3c(NC4CCCC4)ncnc32)[C@H](O)[C@@H]1O` the inhibition was 1.93%.
For `CN(C)c1cccc(-c2c3c(=O)n(-c4ccccc4Cl)[nH]c3cc(=O)n2C)c1`, the inhibition was -2.12%.
For `Cc1ccc(/N=C/N(C)/C=N/c2ccc(C)cc2C)c(C)c1`, the inhibition was -0.68%.
`NC[C@@H](CC(=O)O)c1ccccc1` has an inhibition of -1.36%.
`O=C(O)[C@@H]1C[C@@H](O)CN1` gave an inhibition of -6.48%.
`N#Cc1ccc(N2N=C3c4ccc(C(=O)O)cc4CC[C@@H]3[C@@H]2C2CCCC2)cc1Cl` has an inhibition of 2.25%.
`CN1C(=O)OC(C)(C)C1=O` gave an inhibition of -2.24%.
The inhibition of `CCCCC[C@H](O)/C=C/[C@H]1[C@H](O)CC(=O)[C@@H]1CCCCCCC(=O)O` is reported as -3.27%.
`O=[N+]([O-])c1nccn1CC(O)CN1CCCCC1` (centres unmarked) gave an inhibition of -0.15%.
With `c1ccc2c(c1)OC[C@H](CNCCCOc1ccc3c(c1)OCO3)O2` the inhibition was -17.1%.
With `O=C(Nc1ccccc1)c1cc([N+](=O)[O-])ccc1Cl` the inhibition was -1.98%.
With `C=C(C)[C@@H]1CC[C@]2(C(=O)O)CC[C@]3(C)[C@H](CC[C@@H]4[C@@]5(C)CC[C@H](O)C(C)(C)[C@@H]5CC[C@]43C)[C@@H]12` the inhibition was 6.5%.
With `CN1CC(=O)N=C1NC(=O)Nc1cccc(Cl)c1` the inhibition was 0.41%.
The inhibition of `FC(F)(F)C(F)(F)C(F)(F)C(F)(F)C(F)(F)C(F)(F)C(F)(F)C(F)(F)Br` is reported as -2.42%.
`Nc1nc(O)c2ncn(CCC(CO)CO)c2n1` gave an inhibition of -2.65%.
`CCCN(CC1CC1)c1nc(C)nc(Nc2c(Cl)cc(Cl)cc2Cl)c1Cl` gave an inhibition of -0.06%.
`CCOc1ccc(-c2nc(-c3cccc4c3CCC4NCCO)no2)cc1OCC` (centres unmarked) gave an inhibition of 2.16%.
The inhibition of `O=C1c2c(O)cc(O)cc2O[C@H](c2ccc(O)c(O)c2)[C@H]1O` is reported as -0.99%.
`NC[C@@](O)(c1ccc(Cl)cc1)c1ccc(-c2cn[nH]c2)cc1` has an inhibition of 0.22%.
For `CSCC[C@H](NC(=O)[C@H](Cc1ccccc1)NC(=O)CNC(=O)CNC(=O)[C@@H](N)Cc1ccc(O)cc1)C(=O)O`, the inhibition was -2.16%.
`CC(C)(O)CC[C@@H](O)[C@](C)(O)[C@H]1CC[C@@]2(O)C3=CC(=O)[C@@H]4C[C@@H](O)[C@@H](O)C[C@]4(C)[C@H]3CC[C@]12C` has an inhibition of -4.76%.
`CC(C(=O)O)c1ccc(N2Cc3ccccc3C2=O)cc1` (centres unmarked) gave an inhibition of 20.3%.
`C[C@@H]1CN(Cc2ccc(F)cc2)CCN1C(=O)COc1ccc(Cl)cc1NC(N)=O` gave an inhibition of 6.05%.
With `C[C@H](/C=C/[C@H](C)C(C)(C)O)[C@H]1CC[C@H]2/C(=C/C=C3C[C@@H](O)C[C@H](O)C3)CCC[C@]12C` the inhibition was 1.97%.
With `CCc1c(-c2ccccc2)c(-c2ccccc2)nn1-c1ccccc1-c1cccc(OCC(=O)O)c1` the inhibition was -0.83%.

Repeated from above (set 5):
`TGCGTTT` — result for “relative binding energy”: 1.14 ln ratio.
`TGCTCGC`: “relative binding energy” 1.65 ln ratio.
`TGCTGTA`: “relative binding energy” 1.17 ln ratio.
`GAGTAAT`: “relative binding energy” 0.7 ln ratio.
